Results pooled from the literature.
Lines come from different studies, so protocols differ. ± marks the error that the study gave.

Cc1ccc(C(C)C)cc1.[Cl-].[Cl][Ru+].[Ru+].c1ccc(-c2cn(CCCCOc3ccccc3-c3nc4ccccc4s3)nn2)nc1 — late apoptotic cells (MCF7; annexin V/PI flow cytometry; 4 µM, 24 h): 5.9%
C(=N\Nc1nc(-c2ccccn2)nc2ccccc12)/c1ccccc1 — Emax (LDR; silenced GFP reporter derepression, microscopy; overnight; baseline: sodium butyrate): 97%
O=C(O)c1ccc(/C=C2\SC(=S)N(c3cccc(C(F)(F)F)c3)C2=O)cc1 — NLRP3 and pro-IL-1β expression (mouse BMDM; concentration not given, before or after LPS, together with: LPS): no effect
Cn1c2cc([S+](C)[O-])sc2c2cnn(Cc3cccc(N)c3)c(=O)c21 (stereo not drawn) — intracellular serine (H1299; LC-MS/MS; 25 µM, 36 h): decreased
CC(C)(C)ONc1nc(Nc2ccnc(C(F)(F)F)c2)nc(-c2cccc(C(F)(F)F)n2)n1 — inhibition (U-87 MG IDH2 R172K; 2-HG production; 0.2 µM, 72 h): 74.7%
N[C@@H](CCC(=O)N[C@@H](CS[Se]Cc1ccc(-c2cc(C(F)(F)F)nn2-c2ccc(S(N)(=O)=O)cc2)cc1)C(=O)NCC(=O)O)C(=O)O — decrease in cell proliferation (melanoma cells; BrdU ELISA; 15.5 µM, 24 h): ~80%
COc1cc2c(Nc3ccc(NC(=O)c4ccccc4)cc3)ncnc2cc1OCCCN1CCOCC1 — kinetochore Mad2 level (prometaphase cells; concentration not given; baseline: untreated): < 10%
CO[C@@H]1[C@H](O)[C@@H](COP(=O)(O)OP(=O)([S-])OP(=O)(S)OC[C@H]2O[C@@H](n3cnc4c(=O)[nH]c(N)nc43)[C@H](O)[C@@H]2O)O[C@H]1n1c[n+](C)c2c(O)nc(N)nc21 (mixture of isomers) — relative translation efficiency (human immature dendritic cells; reporter gene; cap on electroporated luciferase mRNA; baseline: beta-S-ARCA D1 capped mRNA): 1.21 ± 0.15
C#CCN(CC(=O)O[C@H]1[C@H](C)O[C@@H](O[C@H]2[C@H](N(C)C)[C@@H](O)[C@H](O[C@H]3[C@@H](CC=O)C[C@@H](C)[C@@H](O[C@H]4CC[C@H](N(C)C)[C@@H](C)O4)/C=C/C=C/C[C@@H](C)OC(=O)C[C@@H](O)[C@@H]3OC)O[C@@H]2C)C[C@@]1(C)O)C(=O)c1ccc(C(F)(F)F)cc1 — cleaved PARP level (HGC-27; Western blot; 0.10, 0.45, 0.90 µM, 24 h): increased
CC[C@H](C)[C@H](NC(=O)[C@H](CC(C)C)NC(=O)[C@@H](N)CS)C(=O)N[C@@H](CCC(=O)O)C(=O)N[C@@H](Cc1ccc(O)cc1)C(=O)NCC(=O)NCC(=O)N[C@@H](C)C(=O)N[C@@H](CC(=O)O)C(=O)N[C@@H](Cc1ccc(O)cc1)C(=O)N[C@@H](CCCCN)C(=O)N[C@H](C(=O)N[C@H](C(=O)N[C@@H](CC(N)=O)C(=O)N[C@@H](CC(C)C)C(=O)N[C@@H](CCCCN)C(=O)O)[C@@H](C)CC)[C@@H](C)O — Bcl-2 protein level (DT40; western blot; infectious bursal disease virus; 50 to 100 nM, 12 h; baseline: infected untreated): increased
C=C(CC)C(=O)c1ccc(OCC(=O)NCCNC(=O)COc2ccc(C(=O)C(=C)CC)c(Cl)c2Cl)c(Cl)c1Cl — sensitisation to cisplatin (CoC1/DDP cisplatin-resistant; cell growth, CCK-8; 1.0 µM, together with: cisplatin): ~2 fold
COc1cc(C2c3cc4c(cc3C=C(C=O)C2C(=O)OCC=Cc2ccccc2)OCO4)cc(OC)c1OC (stereo not drawn) — selectivity index (uninfected mouse splenocytes; baseline: splenocyte CC50 over amastigote EC50): > 10
COc1cc(CNC(=O)C[C@H](C)CCC=C(C)C)ccc1OCc1cn(-c2ccc(Cl)cc2Cl)nn1 — growth percent (M14 melanoma cells; SRB; 10 µM, 48 h): 102%
O=C(/C=C/C=C/c1ccc2c(c1)OCO2)NC(Cc1c[nH]c2ccccc12)C(=O)O (stereo not drawn) — mRNA level (HL-7702 (L-02) hepatocytes; RT-qPCR, refers to: PPARγ; 100 µM; baseline: untreated): 1.9 fold
FC(F)(F)c1ccc(CNc2nc(NCc3ccccc3)c3ccccc3n2)cc1 — GI50 (SW-403; cell growth or viability; 72 h): 1600 nM
COc1cc(CNC(=O)C[C@H](C)CCC=C(C)C)ccc1OCc1cn(-c2cccc(Cl)c2)nn1 — growth percent (M14 melanoma cells; SRB; 10 µM, 48 h): 93.4%
Cc1cc(C)c(S(=O)(=O)N(CC(=O)O)c2ccc(Nc3ccnc(N4CCCC4)n3)cc2)c(C)c1 — G0-G1 phase cells (HCT-116 Cdc37 wild type; PI staining; 10 or 25 µM, 24 h): increased
CO[C@H]1N(OC)c2ccccc2[C@@]12CN=C(Nc1cc(C(F)(F)F)cc(C(F)(F)F)c1)S2 (relative stereo) — viable cells (HCT-116; annexin V/PI flow cytometry; 40 µM, 24 h): 66.3 ± 7%
Cn1ncc2cc(-c3cncc(Cl)c3N3CCC4(CCNC4=O)CC3)ccc21 — number of transcripts altered (LS174T; gene-expression microarray; 0.715 µM, 4 or 24 h): 660
CCCCC(CC)CNC(=N)NC(=N)NCCCCCCCCNC(=N)NC(=N)NCC(CC)CCCC (stereo not drawn) — cells unable to hyperpolarize (NCI-H1299; TMRM flow cytometry; 1 µM, 48 h, together with: oligomycin 1 µM): 5.25%
C=C(C)[C@@H]1CC[C@]2(C(=O)OCO/N=[N+](\[O-])N3CCCC3)CC[C@]3(C)[C@H](CC[C@@H]4[C@@]5(C)CC[C@H](OC(C)=O)C(C)(C)[C@@H]5CC[C@]43C)[C@@H]12 — early apoptotic cells (B16-F10; Annexin V/PI flow cytometry; 1.0 µM, 36 h): 7.35%
COc1ccc([C@@H]2CC(=O)c3c(O)cc(O[C@@H]4O[C@H](CO[C@@H]5O[C@@H](C)[C@H](O)[C@@H](O)[C@H]5O)[C@@H](O[C@H]5O[C@H](CO)[C@@H](O)[C@H](O)[C@H]5O)[C@H](O)[C@H]4O)cc3O2)cc1O — gap closure (A549; cell migration, scratch; 150 µg/mL, 24 h): 3.29 ± 0.12%
COc1cc(CNC(=O)C[C@H](C)CCC=C(C)C)ccc1O — growth percent (SNB-19 CNS cancer cells; SRB; 10 µM, 48 h): 95.3%
Cc1cc(CNCCCCCC(=O)NO)ccc1OCc1cccc(-c2ccccc2)c1C — mRNA level (mouse M1 macrophages; refers to: Socs3; concentration not given): decreased
Cc1ccc(C(C)C)cc1.O=C(N=P(c1ccccc1)(c1ccccc1)c1ccccc1)c1ccccn1.[Cl-].[Cl][Ru+] — inhibition (HCC1806; cell invasion, 3D Transwell Geltrex; IC20, 24 h; baseline: MDA-MB-231): 14.5%
CSCC[C@H](NC(=O)[C@@H](NC(=O)[C@H](CC(C)C)NC(=O)[C@H](CC(N)=O)NC(=O)[C@@H](NC(=O)[C@@H]1CCCN1C(=O)[C@H](CCCNC(=N)N)NC(=O)[C@@H](N)CCC(N)=O)C(C)C)[C@@H](C)O)C(=O)N[C@@H](CCCNC(=N)N)C(=O)N[C@@H](CCCNC(=N)N)C(=O)N[C@@H](CCCCN)C(=O)N[C@@H](CC(C)C)C(=O)N[C@@H](CCCNC(=N)N)C(=O)N[C@@H](CCCCN)C(=O)N[C@@H](Cc1c[nH]cn1)C(=O)N[C@@H](CC(N)=O)C(=O)N[C@H]1CSSC[C@@H](C(=O)N[C@@H](CCSC)C(=O)N2CCC[C@H]2C(=O)N[C@@H](CC(C)C)C(=O)N[C@@H](Cc2c[nH]cn2)C(=O)N[C@@H](CO)C(=O)N[C@@H](CCCNC(=N)N)C(=O)N[C@H](C(=O)N2CCC[C@H]2C(=O)N[C@@H](Cc2ccccc2)C(=O)N2CCC[C@H]2C(=O)O)C(C)C)NC(=O)[C@H](CCCNC(=N)N)NC(=O)[C@H](CCCNC(=N)N)NC(=O)[C@H](CCC(N)=O)NC(=O)[C@H](CC(C)C)NC1=O — BRET signal (HEK293 expressing APJ S335A; β-arrestin1-AP2 interaction, BRET; baseline: wild-type APJ cells): decreased
COc1ccc(CC2COC(=O)C2Cc2ccc3c(c2)OCO3)cc1OC (mixture of isomers) — caspase-positive cells (A2780; refers to: multi-caspase; 8.75 µM, 72 h; baseline: untreated): increased
O=Cc1c(O)ccc2ccccc12 — log2 fold change (HUVEC; RNA sequencing, refers to: SPX; 75 µM, 24 h; baseline: DMSO): 4.12
CC(=O)N[C@H](C(=O)N[C@H](C(=O)N[C@@H](CCCNC(=N)N)C(=O)N1Cc2ccccc2C[C@H]1C(=O)N[C@@H](Cc1ccccc1)C(N)=O)C1CCCCC1)C(C)C — cytokine level (MBP-specific BC-3 T cells; Bio-Plex multiplex, refers to: VEGF; 200 µg/mL, 24 h, together with: MBP87-99 antigen): 90.7 ± 33.9 pg/mL
O=C(NN1C(=O)c2ccccc2NC1c1ccc([N+](=O)[O-])o1)c1ccc([N+](=O)[O-])cc1 (stereo not drawn) — Emax (LDR; silenced GFP reporter derepression, microscopy; overnight; baseline: sodium butyrate): 27%
CC(C)=CCC1=C([O-])C(=O)c2ccccc2C1=O.CC(C)=CCC1=C([O-])C(=O)c2ccccc2C1=O.O.[Cu+2].c1ccc(-c2ccccn2)nc1 — selectivity index (MRC5 and A2780; MTT; 24 h; baseline: IC50 MRC5 over IC50 A2780): 3.8
COc1cc(CNC(=O)C[C@H](C)CCC=C(C)C)ccc1OCc1cn(-c2ccccc2[N+](=O)[O-])nn1 — growth percent (OVCAR-5 ovarian cancer cells; SRB; 10 µM, 48 h): 95.6%
COc1cccc(/C=N/Nc2nc(Nc3ccccc3)nc(-n3nc(C)cc3C)n2)c1O — Emax (LDR; silenced GFP reporter derepression, microscopy; overnight; baseline: sodium butyrate): 104%

Some of these lines once more:
C=C(C)[C@@H]1CC[C@]2(C(=O)OCO/N=[N+](\[O-])N3CCCC3)CC[C@]3(C)[C@H](CC[C@@H]4[C@@]5(C)CC[C@H](OC(C)=O)C(C)(C)[C@@H]5CC[C@]43C)[C@@H]12 — early apoptotic cells (B16-F10; Annexin V/PI flow cytometry; 1.0 µM, 36 h): 7.35%
COc1ccc([C@@H]2CC(=O)c3c(O)cc(O[C@@H]4O[C@H](CO[C@@H]5O[C@@H](C)[C@H](O)[C@@H](O)[C@H]5O)[C@@H](O[C@H]5O[C@H](CO)[C@@H](O)[C@H](O)[C@H]5O)[C@H](O)[C@H]4O)cc3O2)cc1O — gap closure (A549; cell migration, scratch; 150 µg/mL, 24 h): 3.29 ± 0.12%
COc1cc(CNC(=O)C[C@H](C)CCC=C(C)C)ccc1O — growth percent (SNB-19 CNS cancer cells; SRB; 10 µM, 48 h): 95.3%
Cc1cc(CNCCCCCC(=O)NO)ccc1OCc1cccc(-c2ccccc2)c1C — mRNA level (mouse M1 macrophages; refers to: Socs3; concentration not given): decreased
